Literature values as cited in several papers.
Compare with care: the assays were run in different laboratories. ± gives the spread as reported.

O=C(C=C(O)C(F)(F)c1ccccc1)c1cccnc1  IC50 (Plasmodium falciparum formate-nitrite transporter; L-lactate transport, inhibitor, radiolabelled uptake; yeast): 1140 ± 200 nM
CCC1C=C(C)C(O)C(C)CC(OC)C2OC(O)(C(=O)C(=O)N3CCCCC3C(=O)OC(C(C)=CC3CCC(O)C(OC)C3)C(C)C(O)CC1=O)C(C)CC2OC (stereo not drawn)  EC50 (FKBP12; binding, radioligand displacement; together with: [3H]dihydro-FK506): 0.7 nM
CCCCCCCCCC(=O)NC1CCCC1  inhibition (RhlR, Pseudomonas aeruginosa; reporter gene, antagonist, rhlA-lacZ reporter; Pseudomonas aeruginosa, PAO1; 250 µM): 80%
C/C(N)=N/C(=N\S(=O)(=O)c1ccc(C(F)(F)F)cc1)N1C[C@@H](c2ccccc2)C(c2ccc(Cl)cc2)=N1  effect (cannabinoid CB1 receptor; receptor activity; concentration not given): no effect
O=C(C=C(O)C(F)(F)C(F)(F)C(F)(F)F)c1cccnc1  IC50 (Plasmodium falciparum formate-nitrite transporter; L-lactate transport, inhibitor, radiolabelled uptake; yeast): 340 ± 50 nM
C[S+]([O-])c1ccc(Nc2nc(OCC3CCCCC3)c3nc[nH]c3n2)cc1 (stereo not drawn)  binding free energy (TYK2; benchmark set): -10.9 kcal/mol
O=C(C=C(O)C(F)(F)C(F)(F)F)c1ccc(NCc2ccccc2)nc1  IC50 (Plasmodium falciparum formate-nitrite transporter; L-lactate transport, inhibitor, radiolabelled uptake; yeast): 510 ± 150 nM
c1ccc2c(c1)CCCNC2c1c[nH]c2ccccc12 (stereo not drawn)  fluorescence activity ratio (P-glycoprotein (ABCB1); inhibitor; 20 µM; reference: untreated cells, higher = stronger inhibition): 2.6
COc1cccc(-c2cc(F)ccc2[C@H]2Cc3nc(N)nc(C)c3C(=O)N2)n1  IC50 (Hsp90α): 0.6 nM
CC(=O)c1cc(-c2cccc3nccn23)c2cc(N3CCOCC3)ccn12  ΔTm (BRD9 bromodomain; thermal shift; higher = stronger binding): 4.5 °C
CCCCCCCCCC(=O)CC(=O)Nc1ccccc1O  inhibition (RhlR Pseudomonas aeruginosa; rhlI-gfp(LVA) reporter, inhibitor; Pseudomonas aeruginosa, PAO-JP2; 10 µM): 70%
CS(=O)(=O)c1ccc(Nc2nc(OCC3CCCCC3)c3nc[nH]c3n2)cc1  binding free energy (MCL1; experimental benchmark set): -7.92 kcal/mol
COc1cc2c(cc1OC)C(c1c[nH]c3ccccc13)NCC2 (stereo not drawn)  fluorescence activity ratio (P-glycoprotein (ABCB1); inhibitor; 20 µM; reference: untreated cells, higher = stronger inhibition): 4.04
CCCCCCCCCC(=O)CC(=O)NC1CCCCC1=O (stereo not drawn)  inhibition (RhlR Pseudomonas aeruginosa; rhlI-gfp(LVA) reporter, inhibitor; Pseudomonas aeruginosa, PAO-JP2; 50 µM): 70%
CC(C)Nc1ccc(C(=O)C=C(O)C(F)(F)C(F)(F)F)cn1  IC50 (Plasmodium falciparum formate-nitrite transporter; L-lactate transport, inhibitor, radiolabelled uptake; yeast): 150 ± 10 nM
C=Cc1c(C)c2cc3nc(c(CC(=O)[O-])c4[n-]c(cc5nc(cc1[n-]2)C(C)=C5CC)c(C)c4C(=O)[O-])C(CCC(=O)[O-])C3C.[Cu+2].[Na+].[Na+].[Na+] (stereo not drawn)  concentration for activation (Nrf2; activator): 5 to 15 µM
CCCCCNc1ccc(C(=O)C=C(O)C(F)(F)C(F)(F)F)cn1  IC50 (Plasmodium falciparum formate-nitrite transporter; L-lactate transport, inhibitor, radiolabelled uptake; yeast): 390 ± 30 nM
COc1ccc(Nc2nc(Nc3ccc(OCC[18F])cc3)ncc2Br)cc1  tumour to tissue ratio (S180 tumour-bearing mice; intravenous, 15 min; reference: tumour over bone): 1.89
c1ccc2c(c1)CCCNC2c1c[nH]c2ncccc12 (stereo not drawn)  fluorescence activity ratio (P-glycoprotein (ABCB1); inhibitor; 20 µM; reference: untreated cells, higher = stronger inhibition): 3.1
CCN(CC)c1ccc(C(=O)C=C(O)C(F)(F)C(F)(F)F)cn1  IC50 (Plasmodium falciparum formate-nitrite transporter; L-lactate transport, inhibitor, radiolabelled uptake; yeast): 380 ± 320 nM
CN(CCN)Cc1ccccc1Sc1ccccc1Cl  selectivity ratio (CARM1 (PRMT4); enzyme activity, inhibitor; reference: IC50 CARM1 over PRMT1): 60 fold
O=C(C=C(O)C(F)(F)C(F)(F)F)c1cccs1  IC50 (Plasmodium falciparum formate-nitrite transporter; L-lactate transport, inhibitor, radiolabelled uptake; yeast): 110 ± 10 nM
CS(=O)(=O)Nc1ccc(-c2cncc(-c3cccc4cc[nH]c34)c2)cc1  remaining activity (RIPK2; 1 µM): < 30%
Cc1[nH]c(=O)c(CNC(=O)c2cc(Cl)c3c(c2C)O[C@@](C)([C@H]2CC[C@H](N(C)C)CC2)O3)c(C)c1O  potency ratio (EZH2; enzyme activity, inhibitor; reference: IC50 compound over valemetostat): ~4.3 fold
Cn1nnnc1Sc1ncnc2scc(-c3cccc(S(C)(=O)=O)c3)c12  remaining activity (PI5P4Kγ; 10 µM): 4.9%
O=C(C=C(O)C(F)(F)C(F)(F)F)c1ccc(NCC(F)(F)F)nc1  IC50 (Plasmodium falciparum formate-nitrite transporter; L-lactate transport, inhibitor, radiolabelled uptake; yeast): 210 ± 20 nM
O=c1ccc(OCCCN2CCCCC2)nn1-c1ccc(Cl)c(Cl)c1  inhibition (adrenergic α2 receptor; 1.0 µM): 10.6 ± 0.9%

A few entries again:
C=Cc1c(C)c2cc3nc(c(CC(=O)[O-])c4[n-]c(cc5nc(cc1[n-]2)C(C)=C5CC)c(C)c4C(=O)[O-])C(CCC(=O)[O-])C3C.[Cu+2].[Na+].[Na+].[Na+] (stereo not drawn)  concentration for activation (Nrf2; activator): 5 to 15 µM
CCCCCNc1ccc(C(=O)C=C(O)C(F)(F)C(F)(F)F)cn1  IC50 (Plasmodium falciparum formate-nitrite transporter; L-lactate transport, inhibitor, radiolabelled uptake; yeast): 390 ± 30 nM
COc1ccc(Nc2nc(Nc3ccc(OCC[18F])cc3)ncc2Br)cc1  tumour to tissue ratio (S180 tumour-bearing mice; intravenous, 15 min; reference: tumour over bone): 1.89
c1ccc2c(c1)CCCNC2c1c[nH]c2ncccc12 (stereo not drawn)  fluorescence activity ratio (P-glycoprotein (ABCB1); inhibitor; 20 µM; reference: untreated cells, higher = stronger inhibition): 3.1
